Published values of several laboratories.
Every numbered part comes from another study and shows a few of its results, in no order.

Study 1 — technique: protein-binding microarray; molecule type: double-stranded DNA, one strand shown; medium: in vitro; tested at: 940 nM top; setting: 60-bp whole probe; together with: salmon DNA 0.4 mg/ml; reference: random background probes; direction: higher = stronger binding; all sequences stand within: GCCTAGCAC … GTCTTGATTCGCTTGACGCTGCTG
Target: Interferon regulatory factor 5, full length, phosphomimetic (IRF5, Homo sapiens, UniProt Q13568-2, residues 1-514, S451D/S453D/S456D/S462D)
Oligonucleotide | fitted relative affinity [z-score]
TTAGGTTTCGACACTGGGTAAGTGCTA | 8.34
TGAGATATCAGTATCGATTAGTGCTAG | 4.18
GACGATCTCAGACTTGAGACGTGCTAG | -0.45
TCATATTTGCAACATCCCACTGTGCTA | 0.616
TCAGGTCTCTAACTCAAACTGTGCTAG | 0.0551
TTAGATATCAGACTAGATTAGTGCTAG | -0.246
GACGATTTCGGGTATCGATACGTGCTA | 4.28
TTATAACTGGGGTTTCGATTAGTGCTA | 6.02
GACGGTCTACTTATCCTGACGTGCTAG | 0.148
GGACGAGCGACGGTGACACTGTGCTAG | -0.718
TTAGGTTTCGAGTTTCGGTTAGTGCTA | 10.2
GACGGTCTCGGTATCCGGACGTGCTAG | 5.01
ATGTGTTTACAGATGTTTTTGTGCTAG | -0.0483
TTAGGTCTCCTACTACTTTAGTGCTAG | -0.0147
AAGTTTCTCCTTTCGGAATAGTGCTAG | 5
GACGGTATCGACACTGCGGACGTGCTA | 4.18
TTCGGTCTCGGTCTCGGTTAGTGCTAG | 6.09
TTTTTTTTCTGATCCATTTTGTGCTAG | 1.4
TGGGGCTGTATCATCTGAAGGTGCTAG | 0.15
GACGATATCAGTCTAGAGACGTGCTAG | -0.342
GACGGTCTCCTTCTCCTGCCGTGCTAG | 0.142
TCAGTGCTCATGCTTCTTACTGTGCTA | -0.343
GACGATATCAGTTTCAAGACGTGCTAG | 1.07
GACGACTTCGGGTTTCGAGACGTGCTA | 1.62
TCAAAACTAAGTTTATTACTGTGCTAG | -0.0437

Study 2 — technique: RNA Bind-n-Seq; molecule type: RNA; medium: in vitro; tested at: 365 nM; reference: no-protein control; direction: higher = stronger binding
Target: RNA binding protein fox-1 homolog 2, RRM domain, GST-SBP tag (RBFOX2, Homo sapiens, UniProt O43251-10, residues 100-194)
Setting: natural RNA segment, single round, ends assumed
Residues (chain): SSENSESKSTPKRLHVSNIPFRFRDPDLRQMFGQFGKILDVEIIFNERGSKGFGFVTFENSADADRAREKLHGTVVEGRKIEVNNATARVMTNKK
Oligonucleotide | RBNS enrichment (R)
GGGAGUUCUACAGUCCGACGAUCGCAGUAGCAUCCCAUUUGUACCAAAACAGUGUUCUUGCUCUAUAAACCGUGUUAGCAGCUCAGGAAGAUGCCGUGAAGCAUUCUUAUUAAACCACCUGCUAUUUCAUUCAUGGAAUUCUCGGGUGCCAA | 0.626
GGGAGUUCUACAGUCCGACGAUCCAUACAGGUUUUGUAGCUUAUUAUUAUGGAACAGACUGAAGAUCUGCAGUACGAAUUUAAUACUUAUAAAGGUUUGCAUUAAUGAGGAUUACACAGAAAACCUUUGUUAAUGGAAUUCUCGGGUGCCAA | 0.549
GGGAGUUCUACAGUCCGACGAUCUCACACAGGUUCCCCUUGUACAUACAUGCACAUACACACCCAAACACACAUAGAGGACUCUGGAGCCGCAGUGGGACAGCCCUGCCUGCUUGUUCUUCUGAACUUGGGGAUGGAAUUCUCGGGUGCCAA | 1.32
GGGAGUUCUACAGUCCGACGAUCCAGAGCAGCUUGUUUCAGAUAGAAAUUCUCUAUGGGUUGAAAUGCCAAAAACAGAAAACAUGAUGUUGACUCAUGUAAUUUAGUCCAUUUUAGCAGAGCCUUUAGUGUUAUGGAAUUCUCGGGUGCCAA | 0.572
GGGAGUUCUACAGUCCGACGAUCAACCUGUGCCAGUCUAUAGCCUCUGCCUCCCCAAGCAGAGCUCAAGCCAAACGCUUCUGUCCUCUUUCCUUCUGCAUUAACCCUUUGCUGAUCCUCAGGGGCCACUCCCCUGGAAUUCUCGGGUGCCAA | 0.328
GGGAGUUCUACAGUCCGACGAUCGGGUUGCUGGGUACCCCAUGCCCUGAGGGUUCCAGCACUGCUGCCAAGUGGCCUUGUCCCAGCUCCCCCUGCCCCCCCCAAGGCUGGUGUGAGUGUGCAAGUAUGUGUGCUGGAAUUCUCGGGUGCCAA | 0.496
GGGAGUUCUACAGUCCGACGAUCUUUUUUGAAAAUUUUAUAUACUUUAUAAAAACUCCAACCGUUUUUUUAAAAAAAAUAAAAUUUAACAGUUAUCAGCUGAUAGGCAAGUCAUUGAAAAAGUAAUUUUACGUUGGAAUUCUCGGGUGCCAA | 1.03
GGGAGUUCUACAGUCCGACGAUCUGAGCAAUGAGCAAAGCAAUAUCAUAUCCAUGUUUAUGUCCCUCCUCCUUCCCUUGCUCCUCCUCUGGAGAAGCACUAAUUACACAGGGGAUAGCAAAGUAGCACUUUACUGGAAUUCUCGGGUGCCAA | 0.321
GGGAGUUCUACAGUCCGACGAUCCCGCAGGAACAAUGGAAAACUAUUUAAGGGAACAUUGCAGAAAUAUUUGAUGACUGUUUCUUGUGGAAGCCCAAAGUCCACUCUAAGAGCAGAAGAAAUACCAAAAUGUUUGGAAUUCUCGGGUGCCAA | 0.28
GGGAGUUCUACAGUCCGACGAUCCAUGUUGAUCAGUCAGAGGAACUGAGAAAGCCACUAGAUCCAAGCUUAGUCCCAAGAAGAGGGUGAAGACUCGGCUGAGUCACUUGUGUGUGACCCCUACCAGAACAGAGUGGAAUUCUCGGGUGCCAA | 0.421
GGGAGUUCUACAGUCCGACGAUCCAGACCAGCUCCAAGCACUGCUUAGAACAACGGCUCACUCUGACCUUGCUACACAUCCAUUUGGGGUGGACUAUCAGACCAGGCAAGCCAGUCCUAAAGGCUUCUGUGAAUGGAAUUCUCGGGUGCCAA | 0.193
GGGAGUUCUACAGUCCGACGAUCACUCAUAACAAUUUCCUGUGCCAUUCUCUGUACACAGAGGUGAUUCAUUUACUCUCCCAUUAGUAGAACUUGCACUUUGGGCUGUCUGUUCUAGUAUUUGGGAAGUGUUUUGGAAUUCUCGGGUGCCAA | 0.38

Study 3 — technique: universal PBM; molecule type: double-stranded DNA, one strand shown; medium: in vitro; tested at: 600 nM; direction: higher = stronger binding
Target: Sal-like protein 4, full length isoform A (SALL4, Homo sapiens, UniProt Q9UJQ4, residues 1-1053)
Chain of UniProt Q9UJQ4 (whole entry, looked up): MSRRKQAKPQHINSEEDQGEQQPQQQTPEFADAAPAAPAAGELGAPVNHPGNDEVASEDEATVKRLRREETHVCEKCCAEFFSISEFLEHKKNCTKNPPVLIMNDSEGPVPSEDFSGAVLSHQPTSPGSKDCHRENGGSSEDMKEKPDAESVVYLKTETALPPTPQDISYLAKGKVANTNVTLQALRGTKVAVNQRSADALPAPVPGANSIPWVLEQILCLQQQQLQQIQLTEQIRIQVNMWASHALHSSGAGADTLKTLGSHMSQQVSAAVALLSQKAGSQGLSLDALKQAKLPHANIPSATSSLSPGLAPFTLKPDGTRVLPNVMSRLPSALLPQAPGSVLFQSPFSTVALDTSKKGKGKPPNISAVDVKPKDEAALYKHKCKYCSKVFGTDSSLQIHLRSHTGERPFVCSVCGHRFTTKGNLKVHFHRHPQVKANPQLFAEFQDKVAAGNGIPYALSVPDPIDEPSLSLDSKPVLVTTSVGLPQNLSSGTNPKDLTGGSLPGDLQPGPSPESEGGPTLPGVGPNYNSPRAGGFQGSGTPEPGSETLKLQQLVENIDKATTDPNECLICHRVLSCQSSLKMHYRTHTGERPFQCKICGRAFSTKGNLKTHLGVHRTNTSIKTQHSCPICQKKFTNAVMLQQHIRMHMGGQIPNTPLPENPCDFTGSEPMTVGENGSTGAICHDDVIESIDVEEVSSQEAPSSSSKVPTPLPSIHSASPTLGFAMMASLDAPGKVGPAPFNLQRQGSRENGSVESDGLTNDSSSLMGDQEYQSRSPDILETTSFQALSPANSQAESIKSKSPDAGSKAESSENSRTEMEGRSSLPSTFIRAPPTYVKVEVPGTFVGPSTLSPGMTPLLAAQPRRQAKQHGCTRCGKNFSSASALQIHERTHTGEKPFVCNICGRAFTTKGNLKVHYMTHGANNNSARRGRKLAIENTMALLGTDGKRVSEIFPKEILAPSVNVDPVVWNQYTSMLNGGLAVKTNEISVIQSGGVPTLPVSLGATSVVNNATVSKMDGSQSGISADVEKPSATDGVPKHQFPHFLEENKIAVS
Setting: 8-mer, flanks averaged, mean of replicates
Oligonucleotide | E-score
CACGAAGA | 0.0438
AAGGAGAA | 0.0797
CCGTCTAA | -0.124
ACTTGAAT | 0.228
ACGGTGTA | -0.00889
AGGTCCGG | -0.374
GGGATGTA | 0.0455
CCGCATTC | -0.146
AGAGAAGG | -0.124
AGACAATA | 0.323
AAAGACGG | -0.104
GCGAGGCA | -0.155
AGCAGGTG | -0.0351
CCCCGATC | -0.367
CACCCCTG | -0.256
ACGTGGAA | -0.0258
CTGATATC | 0.0817
AGTGCGTA | -0.0559

Study 4 — technique: aptamer microarray, sandwich; molecule type: DNA with 2'F-ANA; medium: in vitro; tested at: 200 nM; together with: Cy3 exosite-II aptamer, 400 nM; direction: higher = stronger binding; oligonucleotide: GGTTGGTGTGGTTGG
Target: Prothrombin, mature alpha-thrombin (F2, Homo sapiens, UniProt P00734)
Setting: whole 15-mer aptamer, many near background
Modification | mean fluorescence intensity [a.u.]
2'F-ANA at 1 2 3 4 5 13 14 | 49.6
2'F-ANA at 1 4 5 9 13 14 | 41.7
2'F-ANA at 1 2 4 5 6 9 10 12 13 | 48.2
2'F-ANA at 2 7 8 9 13 15 | 368
2'F-ANA at 1 4 5 8 12 14 15 | 44
2'F-ANA at 1 2 6 7 8 11 15 | 145
2'F-ANA at 1 5 6 7 9 10 15 | 48.7
2'F-ANA at 3 4 6 7 8 10 11 15 | 214
2'F-ANA at 4 5 7 8 10 11 12 14 15 | 50.6
2'F-ANA at 1 2 15 | 207
2'F-ANA at 1 2 3 5 8 11 15 | 57.7
2'F-ANA at 1 9 11 12 13 | 256
2'F-ANA at 1 2 3 6 9 12 13 15 | 330
2'F-ANA at 1 4 5 6 7 8 10 11 14 15 | 93.1
2'F-ANA at 3 4 7 8 9 10 11 13 15 | 294
2'F-ANA at 2 3 4 5 6 7 8 9 10 12 14 | 49.2
2'F-ANA at 7 9 15 | 544
2'F-ANA at 2 8 14 | 164
2'F-ANA at 1 2 5 7 8 15 | 76.7
2'F-ANA at 3 7 8 13 | 1140
2'F-ANA at 1 2 3 5 6 8 9 10 11 12 14 | 48.4
2'F-ANA at 1 3 6 8 9 10 11 15 | 75.7
2'F-ANA at 1 2 4 8 10 12 13 15 | 58.6
2'F-ANA at 1 3 4 6 7 11 12 14 | 71.6
2'F-ANA at 1 4 6 7 8 9 11 12 | 227
